# Results of several laboratories.
# Every numbered part comes from another study and shows a few of its results, in no order.
# Sequence of UniProt Q99683 (whole entry, looked up): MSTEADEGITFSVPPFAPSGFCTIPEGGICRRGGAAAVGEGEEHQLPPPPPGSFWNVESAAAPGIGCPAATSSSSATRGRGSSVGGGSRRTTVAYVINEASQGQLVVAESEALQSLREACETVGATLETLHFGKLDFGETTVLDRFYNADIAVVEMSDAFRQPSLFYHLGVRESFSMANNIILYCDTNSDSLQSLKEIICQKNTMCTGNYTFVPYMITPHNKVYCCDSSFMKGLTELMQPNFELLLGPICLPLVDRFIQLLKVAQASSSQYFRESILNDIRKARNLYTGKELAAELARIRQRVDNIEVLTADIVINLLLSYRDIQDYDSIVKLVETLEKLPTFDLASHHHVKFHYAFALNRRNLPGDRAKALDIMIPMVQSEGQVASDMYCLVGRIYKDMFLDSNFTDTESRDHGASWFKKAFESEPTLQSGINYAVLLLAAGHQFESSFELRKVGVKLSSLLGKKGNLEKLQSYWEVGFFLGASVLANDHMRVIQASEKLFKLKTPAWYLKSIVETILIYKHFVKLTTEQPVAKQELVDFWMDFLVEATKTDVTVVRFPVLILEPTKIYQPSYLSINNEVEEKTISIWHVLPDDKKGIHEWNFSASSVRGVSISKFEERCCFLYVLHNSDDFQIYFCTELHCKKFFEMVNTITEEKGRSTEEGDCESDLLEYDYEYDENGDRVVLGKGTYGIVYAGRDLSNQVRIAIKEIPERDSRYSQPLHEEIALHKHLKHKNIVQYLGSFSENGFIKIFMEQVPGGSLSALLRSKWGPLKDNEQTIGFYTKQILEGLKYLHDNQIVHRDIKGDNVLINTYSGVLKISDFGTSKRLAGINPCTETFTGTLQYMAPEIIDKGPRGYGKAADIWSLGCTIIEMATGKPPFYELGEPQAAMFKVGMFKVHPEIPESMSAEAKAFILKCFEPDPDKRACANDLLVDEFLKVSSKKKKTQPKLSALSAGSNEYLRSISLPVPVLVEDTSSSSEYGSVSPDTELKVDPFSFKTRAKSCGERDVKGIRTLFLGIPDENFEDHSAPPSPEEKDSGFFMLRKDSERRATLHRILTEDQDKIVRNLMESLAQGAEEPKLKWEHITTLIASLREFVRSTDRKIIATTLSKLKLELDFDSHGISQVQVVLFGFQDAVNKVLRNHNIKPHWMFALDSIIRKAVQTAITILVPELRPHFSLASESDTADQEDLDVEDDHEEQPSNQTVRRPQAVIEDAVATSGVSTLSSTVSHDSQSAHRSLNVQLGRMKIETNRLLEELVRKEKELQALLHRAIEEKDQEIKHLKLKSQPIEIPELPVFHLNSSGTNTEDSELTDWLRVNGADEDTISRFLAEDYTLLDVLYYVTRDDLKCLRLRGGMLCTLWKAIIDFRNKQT
# Sequence of UniProt P08069 (whole entry, looked up): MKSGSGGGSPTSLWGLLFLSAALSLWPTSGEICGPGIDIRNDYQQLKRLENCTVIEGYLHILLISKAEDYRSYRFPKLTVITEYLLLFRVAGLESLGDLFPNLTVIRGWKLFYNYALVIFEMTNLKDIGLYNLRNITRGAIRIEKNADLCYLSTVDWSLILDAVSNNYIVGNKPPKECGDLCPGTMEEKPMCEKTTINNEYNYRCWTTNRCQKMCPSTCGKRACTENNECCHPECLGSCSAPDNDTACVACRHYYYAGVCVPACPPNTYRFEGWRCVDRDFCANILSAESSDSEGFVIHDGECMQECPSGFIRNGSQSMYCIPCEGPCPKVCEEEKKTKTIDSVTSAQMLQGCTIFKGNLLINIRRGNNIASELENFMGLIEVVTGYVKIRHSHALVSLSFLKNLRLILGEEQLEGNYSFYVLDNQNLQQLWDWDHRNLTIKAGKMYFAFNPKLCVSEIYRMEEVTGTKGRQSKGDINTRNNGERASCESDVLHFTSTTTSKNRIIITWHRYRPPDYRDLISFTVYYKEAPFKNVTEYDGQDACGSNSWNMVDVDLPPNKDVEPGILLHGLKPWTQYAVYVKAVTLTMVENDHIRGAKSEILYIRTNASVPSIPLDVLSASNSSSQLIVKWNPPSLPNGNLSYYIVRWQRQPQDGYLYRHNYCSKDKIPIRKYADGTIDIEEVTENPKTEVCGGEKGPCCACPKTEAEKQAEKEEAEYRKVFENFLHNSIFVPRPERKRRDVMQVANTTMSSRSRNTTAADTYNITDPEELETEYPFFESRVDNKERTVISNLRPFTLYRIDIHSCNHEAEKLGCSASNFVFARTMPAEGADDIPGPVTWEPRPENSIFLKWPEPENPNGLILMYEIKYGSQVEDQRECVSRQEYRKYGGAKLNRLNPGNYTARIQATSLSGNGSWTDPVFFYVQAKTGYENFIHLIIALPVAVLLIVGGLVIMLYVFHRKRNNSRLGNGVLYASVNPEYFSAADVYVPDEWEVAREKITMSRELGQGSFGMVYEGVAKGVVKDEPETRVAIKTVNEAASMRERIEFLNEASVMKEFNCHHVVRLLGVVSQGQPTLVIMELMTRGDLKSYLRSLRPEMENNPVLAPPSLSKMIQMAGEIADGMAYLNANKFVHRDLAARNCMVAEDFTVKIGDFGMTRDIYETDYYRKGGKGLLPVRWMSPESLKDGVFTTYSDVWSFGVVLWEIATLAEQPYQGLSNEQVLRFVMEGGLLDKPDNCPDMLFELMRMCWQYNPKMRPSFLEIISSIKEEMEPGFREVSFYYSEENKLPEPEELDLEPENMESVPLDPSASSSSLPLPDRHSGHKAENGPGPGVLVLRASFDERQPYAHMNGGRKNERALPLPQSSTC
# Sequence of UniProt Q13153 (whole entry, looked up): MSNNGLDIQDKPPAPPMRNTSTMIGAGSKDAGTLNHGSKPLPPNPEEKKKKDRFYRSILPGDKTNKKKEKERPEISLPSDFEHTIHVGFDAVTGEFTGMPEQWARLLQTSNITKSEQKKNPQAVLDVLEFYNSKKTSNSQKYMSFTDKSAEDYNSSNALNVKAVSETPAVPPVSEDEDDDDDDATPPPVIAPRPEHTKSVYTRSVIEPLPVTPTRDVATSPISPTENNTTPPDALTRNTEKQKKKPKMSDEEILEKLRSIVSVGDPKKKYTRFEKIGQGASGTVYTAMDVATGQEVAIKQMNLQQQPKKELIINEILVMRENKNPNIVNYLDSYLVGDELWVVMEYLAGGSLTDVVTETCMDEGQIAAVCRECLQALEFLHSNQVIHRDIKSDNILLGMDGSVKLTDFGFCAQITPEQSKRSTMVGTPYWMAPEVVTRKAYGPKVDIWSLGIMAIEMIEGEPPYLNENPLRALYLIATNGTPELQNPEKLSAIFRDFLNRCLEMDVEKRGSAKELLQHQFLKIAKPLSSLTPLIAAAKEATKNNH
# Sequence of UniProt Q13131 (whole entry, looked up): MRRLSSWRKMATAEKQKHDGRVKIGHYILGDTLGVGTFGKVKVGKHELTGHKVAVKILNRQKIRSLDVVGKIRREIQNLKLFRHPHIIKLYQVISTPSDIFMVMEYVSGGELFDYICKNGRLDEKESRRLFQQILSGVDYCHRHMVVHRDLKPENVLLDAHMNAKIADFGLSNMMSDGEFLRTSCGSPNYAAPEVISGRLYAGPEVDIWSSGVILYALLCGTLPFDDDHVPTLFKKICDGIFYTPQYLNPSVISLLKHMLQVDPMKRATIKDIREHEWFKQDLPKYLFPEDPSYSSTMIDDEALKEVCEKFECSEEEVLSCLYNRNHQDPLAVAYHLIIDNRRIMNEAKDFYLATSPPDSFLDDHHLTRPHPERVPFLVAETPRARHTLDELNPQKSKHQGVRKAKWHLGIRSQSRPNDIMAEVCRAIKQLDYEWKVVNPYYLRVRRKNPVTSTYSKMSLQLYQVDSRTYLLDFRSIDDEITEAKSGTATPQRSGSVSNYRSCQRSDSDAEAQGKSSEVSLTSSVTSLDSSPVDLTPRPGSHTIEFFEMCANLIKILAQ
# Sequence of UniProt P31749 (whole entry, looked up): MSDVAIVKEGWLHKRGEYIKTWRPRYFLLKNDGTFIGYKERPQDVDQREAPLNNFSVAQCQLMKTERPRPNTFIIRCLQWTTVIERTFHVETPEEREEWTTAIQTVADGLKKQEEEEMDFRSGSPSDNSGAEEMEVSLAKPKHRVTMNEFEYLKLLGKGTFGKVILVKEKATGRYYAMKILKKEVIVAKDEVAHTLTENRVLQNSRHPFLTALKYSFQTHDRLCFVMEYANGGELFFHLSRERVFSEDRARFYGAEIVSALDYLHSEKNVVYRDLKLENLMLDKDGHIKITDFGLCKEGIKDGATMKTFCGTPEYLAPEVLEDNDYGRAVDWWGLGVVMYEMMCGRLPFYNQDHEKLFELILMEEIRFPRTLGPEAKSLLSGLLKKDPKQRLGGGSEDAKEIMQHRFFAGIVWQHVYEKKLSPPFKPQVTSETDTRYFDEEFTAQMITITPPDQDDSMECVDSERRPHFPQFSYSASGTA
# Sequence of UniProt P46734 (whole entry, looked up): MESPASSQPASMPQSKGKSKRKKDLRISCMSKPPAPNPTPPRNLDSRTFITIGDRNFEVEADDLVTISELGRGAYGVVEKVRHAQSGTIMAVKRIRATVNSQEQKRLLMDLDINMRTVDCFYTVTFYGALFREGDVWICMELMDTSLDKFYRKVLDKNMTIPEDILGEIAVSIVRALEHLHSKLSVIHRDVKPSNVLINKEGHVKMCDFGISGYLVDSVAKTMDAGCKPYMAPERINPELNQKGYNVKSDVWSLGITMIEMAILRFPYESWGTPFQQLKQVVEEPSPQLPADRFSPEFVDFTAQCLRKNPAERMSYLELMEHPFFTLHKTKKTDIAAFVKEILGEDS
# Sequence of UniProt Q8WU08 (whole entry, looked up): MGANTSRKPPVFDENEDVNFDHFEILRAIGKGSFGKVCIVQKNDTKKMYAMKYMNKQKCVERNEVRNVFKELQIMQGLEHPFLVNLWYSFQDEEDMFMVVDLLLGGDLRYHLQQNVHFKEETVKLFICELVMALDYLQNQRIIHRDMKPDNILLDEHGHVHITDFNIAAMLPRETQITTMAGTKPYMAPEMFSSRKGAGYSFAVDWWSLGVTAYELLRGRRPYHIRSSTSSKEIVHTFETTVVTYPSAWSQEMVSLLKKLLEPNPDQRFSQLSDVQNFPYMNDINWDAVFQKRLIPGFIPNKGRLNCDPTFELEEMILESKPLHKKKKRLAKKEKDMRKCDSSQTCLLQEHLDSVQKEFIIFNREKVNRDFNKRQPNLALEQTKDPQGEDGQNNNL

# Set 1 — cell line: UWB1289; read-out: cell growth or viability; method: ATP luminescence; time: 6 days
# SMILES: O=C(c1cc(Cc2n[nH]c(=O)c3ccccc23)ccc1F)N1CCN(C(=O)C2CC2)CC1
concentration,viability
2.5 µM,68.8%
5 µM,56.9%
0.31 µM,79.1%
0.63 µM,80.1%

# Set 2 — host: mouse; sample: microsomes or S9; concentration: 2 µM; time: 0.5 h
Compound,remaining compound [%]
Cn1c(=O)[nH]c(=O)c2c1nc(NC1CCCCC1)n2CC(=O)NC1CCCCC1,1.66
CC(C)[C@@H](NS(=O)(=O)c1c(N)cc(Cl)cc1Cl)C(=O)NOC(C)(C)C,0
CC(C)C(CCN1CCN(C)CC1)c1ccco1 (stereo not drawn),1.93
COc1cc(=O)[nH]cc1C(=O)N1CCCC1C1CCCCC1 (stereo not drawn),67.2
COC(=O)c1[nH]cc(C(=O)C2CCNCC2)c1C,75.5
CC1(c2ccccn2)CCN(C(=O)C(O)c2ccccc2)C1 (stereo not drawn),89.7
CC(=O)Nc1cc2ccc(OC(C)=O)cc2oc1=O,2.89
Cc1ccc(-c2nnco2)cc1N1C(=O)NC(C)(c2ccc(S(C)(=O)=O)cc2)C1=O (stereo not drawn),76.7
CCOC(=O)C(C)(C)Cc1nc(-c2ccc(OCc3ccc(OC)cc3)cn2)no1,0.886
COc1cc(S(=O)(=O)N2CCC(C(N)=O)CC2)c(OC)cc1Cl,51.2
COc1cccc(NC(=O)c2c(C)nc(C)c(C(=O)O)c2-c2ccc(Cl)cc2)c1,6

# Set 3 — read-out: enzyme activity; mode: inhibitor; concentration: 0.5 µM; relative to: control
# Target: Mitogen-activated protein kinase kinase kinase 7 (MAP3K7, Homo sapiens, UniProt O43318)
# Target sequence (O43318 1-606): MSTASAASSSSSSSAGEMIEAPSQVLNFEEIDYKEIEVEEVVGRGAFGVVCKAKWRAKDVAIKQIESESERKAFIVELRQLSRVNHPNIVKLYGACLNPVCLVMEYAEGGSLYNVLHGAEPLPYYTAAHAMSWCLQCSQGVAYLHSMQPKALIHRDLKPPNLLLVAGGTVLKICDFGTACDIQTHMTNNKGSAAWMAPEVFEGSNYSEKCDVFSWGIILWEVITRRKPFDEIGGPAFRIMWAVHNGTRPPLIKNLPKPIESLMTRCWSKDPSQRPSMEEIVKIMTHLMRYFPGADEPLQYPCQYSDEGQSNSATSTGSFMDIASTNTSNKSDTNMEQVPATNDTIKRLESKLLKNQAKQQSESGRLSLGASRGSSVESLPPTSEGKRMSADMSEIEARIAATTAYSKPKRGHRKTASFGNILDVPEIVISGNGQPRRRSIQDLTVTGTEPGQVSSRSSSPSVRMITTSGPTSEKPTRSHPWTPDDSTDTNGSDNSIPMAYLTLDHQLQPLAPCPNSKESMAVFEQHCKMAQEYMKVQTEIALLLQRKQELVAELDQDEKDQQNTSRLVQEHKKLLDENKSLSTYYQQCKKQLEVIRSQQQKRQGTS
Structure (SMILES),remaining activity [%]
O=C1NC(=O)C(c2c[nH]c3ccccc23)=C1c1c[nH]c2ccccc12,97
Cc1ccc(NC2=CC(=O)c3sc(C)nc3C2=O)cc1,99.1
O=S(=O)(NCCNC/C=C/c1ccc(Br)cc1)c1cccc2cnccc12,109
Fc1ccc(-c2nc3n(c2-c2ccncc2)CCS3)cc1,92.2
COc1ccc(S(=O)(=O)N(CCO)c2ccccc2CN(C)CC=Cc2ccc(Cl)cc2)cc1,94.7
Cc1cc(Nc2nc(-c3ccccc3)nc3ccccc23)n[nH]1,78.3
Nc1ncnc2c1cnn2-c1ccccc1,98.9
O=C1Cc2c([nH]c3ccc([N+](=O)[O-])cc23)-c2ccccc2N1,67.5
CC(=O)c1ccc(N2CCOCC2)cc1O,98.6
CCc1[nH]c(-c2ccc(OC)cc2)nc1-c1ccncc1,96.6
CCCC(=O)Oc1ccc2[nH]c(C(=O)c3cc4ccccc4[nH]3)cc2c1,92.1
CC(C)(C)n1nc(Cc2cccc3ccccc23)c2c(N)ncnc21,99
Nc1nc(Nc2ccc(S(N)(=O)=O)cc2)nn1C(=O)c1c(F)cccc1F,77.4
NC(=O)c1ccc(N(C(N)=O)c2c(F)cccc2F)nc1-c1ccc(F)cc1F,105
CSc1nc(-c2ccnc(N[C@@H](C)c3ccccc3)c2)c(-c2ccc(F)cc2)[nH]1 (racemic),90.5
Cc1cncc2cccc(S(=O)(=O)N3CCCN(C(=O)CN)C[C@@H]3C)c12,94.9
Nc1nccc(-c2c(-c3ccc(F)cc3)ncn2C2CCNCC2)n1,96.9
Oc1ccc(Nc2nc(-c3ccc(Cl)cc3)cs2)cc1,95.3
N#CC(=C(N)Sc1ccc(N)cc1)c1ccccc1C(F)(F)F,93.5
CC[n+]1c(/C=C/N(C)c2ccccc2)n(-c2ccccc2)c2ccc(-c3nc4ccccc4s3)cc21,98.8
CC#CC(=O)Nc1cc2c(Nc3ccc(F)c(Cl)c3)ncnc2cn1,100
COc1cc(Nc2c(C#N)cnc3cc(OCCCN4CCN(C)CC4)c(OC)cc23)c(Cl)cc1Cl,28.3

# Set 4 — read-out: cell-free assay; method: competition with immobilised ligand; concentration: 1 µM
# Compound: CNCc1ccccc1-c1csc([C@H](C)Nc2nc(C)nc3cc(OC)c(OC)cc23)c1
target,remaining binding [%]
"Ephrin type-A receptor 1 (EPHA1, Homo sapiens, UniProt P21709)",100
"Mitogen-activated protein kinase kinase kinase 7 (MAP3K7, Homo sapiens, UniProt O43318)",75
"Serine/threonine-protein kinase SIK3 (SIK3, Homo sapiens, UniProt Q9Y2K2)",78
"Activin receptor type-1-like (ACVRL1, Homo sapiens, UniProt P37023)",100
"RAC-alpha serine/threonine-protein kinase (AKT1, Homo sapiens, UniProt P31749)",100
"Angiopoietin-1 receptor (TEK, Homo sapiens, UniProt Q02763)",100
"Dual specificity mitogen-activated protein kinase kinase 3 (MAP2K3, Homo sapiens, UniProt P46734)",98
"Serine/threonine-protein kinase 32A (STK32A, Homo sapiens, UniProt Q8WU08)",91
"Calcium/calmodulin-dependent protein kinase kinase 2 (CAMKK2, Homo sapiens, UniProt Q96RR4)",82
"Fibroblast growth factor receptor 3 (FGFR3, Homo sapiens, UniProt P22607)",98
"Wee1-like protein kinase (WEE1, Homo sapiens, UniProt P30291)",100
"Mitogen-activated protein kinase kinase kinase 5 (MAP3K5, Homo sapiens, UniProt Q99683)",100
"Serine/threonine-protein kinase PAK 1 (PAK1, Homo sapiens, UniProt Q13153)",99
"Insulin-like growth factor 1 receptor (IGF1R, Homo sapiens, UniProt P08069)",100
"Casein kinase I isoform delta (CSNK1D, Homo sapiens, UniProt P48730)",95
"5'-AMP-activated protein kinase catalytic subunit alpha-1 (PRKAA1, Homo sapiens, UniProt Q13131)",93
"Ribosomal protein S6 kinase alpha-4, C-terminal kinase domain (RPS6KA4, Homo sapiens, UniProt O75676)",100

# A few entries again (set 1):
concentration,viability
5 µM,56.9%
0.63 µM,80.1%
2.5 µM,68.8%
0.31 µM,79.1%
